Results collected from several papers.
Parts stem from different laboratories: compare values within a part only. Positions count from the first letter of the parent shown.
Sequence of UniProt Q9C098 (whole entry, looked up): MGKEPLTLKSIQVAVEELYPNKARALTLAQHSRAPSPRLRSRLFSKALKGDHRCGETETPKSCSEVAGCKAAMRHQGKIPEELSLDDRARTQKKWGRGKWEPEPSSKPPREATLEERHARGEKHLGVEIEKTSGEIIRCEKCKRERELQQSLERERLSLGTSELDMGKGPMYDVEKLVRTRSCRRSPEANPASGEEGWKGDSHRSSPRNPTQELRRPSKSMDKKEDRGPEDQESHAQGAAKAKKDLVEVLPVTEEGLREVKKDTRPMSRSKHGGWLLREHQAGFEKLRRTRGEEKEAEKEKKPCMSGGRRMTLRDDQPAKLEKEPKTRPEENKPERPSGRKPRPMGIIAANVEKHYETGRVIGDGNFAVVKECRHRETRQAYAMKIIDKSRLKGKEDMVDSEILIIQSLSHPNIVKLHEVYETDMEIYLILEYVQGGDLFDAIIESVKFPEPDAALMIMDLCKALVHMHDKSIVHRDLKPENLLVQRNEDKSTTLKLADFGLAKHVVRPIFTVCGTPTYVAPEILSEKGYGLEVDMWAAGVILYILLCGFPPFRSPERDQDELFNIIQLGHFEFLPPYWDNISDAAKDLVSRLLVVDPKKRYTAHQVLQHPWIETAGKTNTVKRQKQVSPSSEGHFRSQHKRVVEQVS
Sequence of UniProt Q9H2X6 (whole entry, looked up): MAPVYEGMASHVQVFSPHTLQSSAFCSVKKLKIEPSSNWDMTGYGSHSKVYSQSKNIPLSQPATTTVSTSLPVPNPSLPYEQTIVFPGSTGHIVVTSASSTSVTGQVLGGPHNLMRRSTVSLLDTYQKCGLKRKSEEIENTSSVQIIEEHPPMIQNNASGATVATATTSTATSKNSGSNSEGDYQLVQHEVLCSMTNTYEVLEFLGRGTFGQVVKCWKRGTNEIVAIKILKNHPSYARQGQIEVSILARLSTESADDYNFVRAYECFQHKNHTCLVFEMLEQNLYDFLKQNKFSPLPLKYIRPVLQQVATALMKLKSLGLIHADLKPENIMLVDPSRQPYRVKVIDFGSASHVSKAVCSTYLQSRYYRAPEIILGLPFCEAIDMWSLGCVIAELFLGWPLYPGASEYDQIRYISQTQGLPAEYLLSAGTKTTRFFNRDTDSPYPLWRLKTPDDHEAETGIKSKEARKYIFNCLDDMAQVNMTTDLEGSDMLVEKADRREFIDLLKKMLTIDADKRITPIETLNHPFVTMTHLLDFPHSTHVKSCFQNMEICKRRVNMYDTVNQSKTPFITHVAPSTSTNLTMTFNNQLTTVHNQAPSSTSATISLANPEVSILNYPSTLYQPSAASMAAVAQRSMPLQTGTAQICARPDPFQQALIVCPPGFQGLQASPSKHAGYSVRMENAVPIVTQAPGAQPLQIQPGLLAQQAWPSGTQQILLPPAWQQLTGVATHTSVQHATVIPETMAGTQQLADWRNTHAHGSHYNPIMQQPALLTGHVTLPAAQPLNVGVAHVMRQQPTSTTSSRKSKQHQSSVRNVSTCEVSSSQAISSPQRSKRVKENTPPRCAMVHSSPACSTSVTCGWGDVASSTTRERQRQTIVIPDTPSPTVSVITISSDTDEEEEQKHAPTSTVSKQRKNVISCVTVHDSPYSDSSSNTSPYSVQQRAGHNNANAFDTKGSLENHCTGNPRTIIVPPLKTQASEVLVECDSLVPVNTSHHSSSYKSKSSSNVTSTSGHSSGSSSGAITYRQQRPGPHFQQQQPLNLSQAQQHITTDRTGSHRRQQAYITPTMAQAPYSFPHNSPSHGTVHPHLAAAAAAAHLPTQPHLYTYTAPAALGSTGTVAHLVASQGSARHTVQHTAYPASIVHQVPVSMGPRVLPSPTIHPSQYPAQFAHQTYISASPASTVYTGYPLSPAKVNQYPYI
Sequence of UniProt Q9UBE8 (whole entry, looked up): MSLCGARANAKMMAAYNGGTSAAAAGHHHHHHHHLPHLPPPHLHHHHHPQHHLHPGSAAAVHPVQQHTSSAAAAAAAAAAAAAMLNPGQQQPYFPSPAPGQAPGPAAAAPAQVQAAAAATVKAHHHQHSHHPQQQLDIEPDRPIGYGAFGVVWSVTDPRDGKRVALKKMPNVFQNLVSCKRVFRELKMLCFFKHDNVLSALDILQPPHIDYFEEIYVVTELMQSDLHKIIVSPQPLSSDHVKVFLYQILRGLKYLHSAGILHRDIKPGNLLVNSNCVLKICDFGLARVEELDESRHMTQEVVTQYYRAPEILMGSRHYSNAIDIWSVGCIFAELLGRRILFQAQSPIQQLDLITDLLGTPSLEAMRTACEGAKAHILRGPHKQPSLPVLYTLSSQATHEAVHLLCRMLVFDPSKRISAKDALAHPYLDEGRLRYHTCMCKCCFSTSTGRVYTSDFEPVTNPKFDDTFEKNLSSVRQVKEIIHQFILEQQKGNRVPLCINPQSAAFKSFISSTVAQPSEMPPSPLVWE
Sequence of UniProt O75747 (whole entry, looked up): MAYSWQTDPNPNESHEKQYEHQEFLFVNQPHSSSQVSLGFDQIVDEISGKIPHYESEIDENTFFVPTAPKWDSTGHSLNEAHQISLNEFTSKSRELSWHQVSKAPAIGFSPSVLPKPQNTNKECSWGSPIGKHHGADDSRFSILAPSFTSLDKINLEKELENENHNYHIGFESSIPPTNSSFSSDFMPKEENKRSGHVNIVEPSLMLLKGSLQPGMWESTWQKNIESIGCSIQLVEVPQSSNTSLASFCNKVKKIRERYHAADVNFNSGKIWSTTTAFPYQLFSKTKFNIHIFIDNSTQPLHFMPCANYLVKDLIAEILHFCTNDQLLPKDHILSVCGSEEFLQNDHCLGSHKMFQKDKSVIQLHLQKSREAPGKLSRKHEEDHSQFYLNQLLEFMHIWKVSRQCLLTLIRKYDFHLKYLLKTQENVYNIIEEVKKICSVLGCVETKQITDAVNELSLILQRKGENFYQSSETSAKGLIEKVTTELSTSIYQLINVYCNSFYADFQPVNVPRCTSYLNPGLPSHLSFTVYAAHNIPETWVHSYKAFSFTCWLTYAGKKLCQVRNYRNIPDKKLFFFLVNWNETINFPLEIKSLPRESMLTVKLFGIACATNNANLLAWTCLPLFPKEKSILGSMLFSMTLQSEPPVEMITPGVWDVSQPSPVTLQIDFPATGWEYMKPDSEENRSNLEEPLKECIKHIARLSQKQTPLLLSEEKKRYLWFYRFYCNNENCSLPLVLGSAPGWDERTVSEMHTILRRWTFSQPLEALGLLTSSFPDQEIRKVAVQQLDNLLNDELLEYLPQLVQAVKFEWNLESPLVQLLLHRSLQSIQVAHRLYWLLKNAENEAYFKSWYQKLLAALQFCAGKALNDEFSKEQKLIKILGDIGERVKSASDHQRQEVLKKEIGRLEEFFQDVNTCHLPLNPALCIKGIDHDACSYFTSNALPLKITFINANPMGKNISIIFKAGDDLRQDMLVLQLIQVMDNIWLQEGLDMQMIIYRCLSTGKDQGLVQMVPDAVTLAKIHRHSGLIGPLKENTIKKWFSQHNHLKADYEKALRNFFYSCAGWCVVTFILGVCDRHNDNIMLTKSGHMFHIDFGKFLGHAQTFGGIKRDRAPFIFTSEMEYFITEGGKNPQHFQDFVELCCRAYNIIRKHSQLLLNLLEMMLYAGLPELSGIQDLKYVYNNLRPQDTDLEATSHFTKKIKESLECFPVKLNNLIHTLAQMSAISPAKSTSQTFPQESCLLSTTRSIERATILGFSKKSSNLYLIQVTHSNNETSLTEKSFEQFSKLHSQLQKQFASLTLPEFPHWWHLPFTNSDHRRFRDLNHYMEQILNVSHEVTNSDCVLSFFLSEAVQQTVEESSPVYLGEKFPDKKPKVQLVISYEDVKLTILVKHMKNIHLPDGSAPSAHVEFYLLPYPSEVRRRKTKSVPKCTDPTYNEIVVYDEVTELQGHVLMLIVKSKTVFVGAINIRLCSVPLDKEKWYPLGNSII
Sequence of UniProt O43318 (whole entry, looked up): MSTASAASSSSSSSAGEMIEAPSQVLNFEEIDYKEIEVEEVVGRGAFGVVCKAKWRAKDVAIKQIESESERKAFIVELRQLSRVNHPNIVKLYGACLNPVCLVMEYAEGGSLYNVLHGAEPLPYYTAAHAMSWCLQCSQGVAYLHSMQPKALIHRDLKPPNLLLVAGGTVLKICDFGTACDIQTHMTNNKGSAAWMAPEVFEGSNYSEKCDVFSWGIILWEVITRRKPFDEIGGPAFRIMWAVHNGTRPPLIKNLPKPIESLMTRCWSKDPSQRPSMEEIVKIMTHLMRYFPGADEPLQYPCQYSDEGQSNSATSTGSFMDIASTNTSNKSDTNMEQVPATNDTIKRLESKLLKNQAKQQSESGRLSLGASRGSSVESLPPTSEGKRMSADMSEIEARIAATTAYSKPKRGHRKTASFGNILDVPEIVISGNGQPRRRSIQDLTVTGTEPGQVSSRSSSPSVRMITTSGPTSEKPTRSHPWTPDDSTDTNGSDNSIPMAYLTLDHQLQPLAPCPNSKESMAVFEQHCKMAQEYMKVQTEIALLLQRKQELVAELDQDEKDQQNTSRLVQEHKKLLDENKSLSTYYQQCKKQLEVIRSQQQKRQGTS
Sequence of UniProt P50613 (whole entry, looked up): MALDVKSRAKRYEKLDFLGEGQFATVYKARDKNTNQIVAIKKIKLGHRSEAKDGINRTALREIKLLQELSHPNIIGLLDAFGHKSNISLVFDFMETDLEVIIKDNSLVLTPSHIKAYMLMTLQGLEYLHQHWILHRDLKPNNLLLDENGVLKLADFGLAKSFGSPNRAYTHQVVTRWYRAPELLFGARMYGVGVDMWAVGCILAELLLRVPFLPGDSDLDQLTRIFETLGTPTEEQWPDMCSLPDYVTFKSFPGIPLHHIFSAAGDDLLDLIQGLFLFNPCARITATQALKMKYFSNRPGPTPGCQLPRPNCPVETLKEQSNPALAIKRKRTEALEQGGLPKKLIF

Sample 1 — effect on: enzyme activity; action: inhibitor; concentration: 0.5 µM; reference: control; quantity: remaining activity
Target: G protein-coupled receptor kinase 3 (GRK3, Homo sapiens, UniProt P35626)
Residues (P35626 1-688): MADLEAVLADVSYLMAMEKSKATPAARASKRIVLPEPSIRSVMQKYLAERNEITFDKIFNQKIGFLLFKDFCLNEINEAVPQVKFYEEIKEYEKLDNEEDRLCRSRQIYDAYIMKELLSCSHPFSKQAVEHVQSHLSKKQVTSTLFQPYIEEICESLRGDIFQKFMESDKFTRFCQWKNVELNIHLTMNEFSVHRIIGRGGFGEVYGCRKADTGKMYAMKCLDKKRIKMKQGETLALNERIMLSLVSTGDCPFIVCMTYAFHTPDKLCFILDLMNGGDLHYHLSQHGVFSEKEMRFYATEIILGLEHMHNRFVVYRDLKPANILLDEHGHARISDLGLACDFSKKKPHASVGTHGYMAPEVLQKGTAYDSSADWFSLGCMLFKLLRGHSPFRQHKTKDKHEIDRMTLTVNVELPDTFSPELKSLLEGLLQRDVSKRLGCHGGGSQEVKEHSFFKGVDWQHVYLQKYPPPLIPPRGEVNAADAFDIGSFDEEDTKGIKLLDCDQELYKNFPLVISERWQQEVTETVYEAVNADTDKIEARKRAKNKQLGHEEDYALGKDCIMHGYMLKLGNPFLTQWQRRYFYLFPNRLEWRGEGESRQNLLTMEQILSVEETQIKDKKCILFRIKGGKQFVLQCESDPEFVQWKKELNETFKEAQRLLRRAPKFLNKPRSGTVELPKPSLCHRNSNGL
SMILES = CN(C)c1ccc(C=C2C(=O)Nc3ccccc32)cc1; value = 98.9%
SMILES = Cc1ccc(NC(=O)c2ccc(CN3CCN(C)CC3)cc2)cc1Nc1nc(-c2cccnc2)cs1; value = 100%
SMILES = O=C(Nc1cccc(Nc2cc(Nc3cccc(C(F)(F)F)c3)ncn2)c1)C1CC1; value = 103%
SMILES = COc1ccc(OC)c2c(=S)c3ccccc3[nH]c12; value = 86.5%
SMILES = COc1cc2ncnc(Nc3ccc(F)c(Cl)c3)c2cc1OCCCN1CCOCC1; value = 97.9%
SMILES = O=S(=O)(c1cccc2cnccc12)N1CCCNCC1; value = 100%
SMILES = O=C(CCCc1ccc(-c2ccccc2F)cc1)Nc1ccc(O)cc1; value = 100%
SMILES = CO[C@H]1C[C@@H]2CC[C@@H](C)[C@@](O)(O2)C(=O)C(=O)N2CCCC[C@H]2C(=O)O[C@H]([C@H](C)C[C@@H]2CC[C@@H](O)[C@H](OC)C2)CC(=O)[C@H](C)/C=C(\C)[C@@H](O)[C@@H](OC)C(=O)[C@H](C)C[C@H](C)/C=C/C=C/C=C/1C; value = 98%
SMILES = Nc1ncnc2n[nH]c(Nc3ccc(F)cc3)c12; value = 102%
SMILES = Cc1nc(-c2ccccc2)c(-c2ccncc2)o1; value = 101%
SMILES = CCOC(=O)c1c(C)[nH]c(/C=C2\C(=O)Nc3ccccc32)c1C; value = 94.7%
SMILES = C#Cc1cccc(Nc2ncnc3cc(OCCOC)c(OCCOC)cc23)c1; value = 94.8%
SMILES = O=C(O)c1ccc2c3c1cccc3c(=O)n1c3ccccc3nc21; value = 103%
SMILES = OCC(O)CCON=C1C(c2c(O)[nH]c3ccccc23)=Nc2ccccc21 (centres unmarked); value = 100%
SMILES = O=C1NC(=O)C(c2cn(CCCn3ccnc3)c3ccccc23)=C1Nc1ccccc1; value = 97.9%
SMILES = COc1ccc(CNC(=O)Nc2ncc([N+](=O)[O-])s2)cc1; value = 112%

Sample 2 — target: CRIPT, C-terminal peptide; technique: DHFR complementation, deep sequencing; medium: yeast; reference: wild type; direction: higher = weaker binding; quantity: binding free energy change
Setting: single substitutions, model-inferred values
Starting sequence: ERBIN, PDZ domain 1 (human); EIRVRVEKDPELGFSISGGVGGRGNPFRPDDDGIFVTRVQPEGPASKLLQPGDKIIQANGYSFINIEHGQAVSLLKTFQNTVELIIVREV; partner TKNYKQTSV
Substitution = G52P; value = 0.538 kcal/mol
Substitution = Y61V; value = 0.0387 kcal/mol
Substitution = P44R; value = 0.28 kcal/mol
Substitution = F78I; value = 0.433 kcal/mol
Substitution = Q50D; value = 0.104 kcal/mol
Substitution = S62F; value = 0.0815 kcal/mol
Substitution = V90E; value = -0.0973 kcal/mol
Substitution = Q79W; value = 0.123 kcal/mol

Sample 3 — effect on: cell-free assay; technique: competition with immobilised ligand; concentration: 0.1 µM; quantity: remaining binding
Structure (SMILES): COCCOc1nc(-c2ccc(Cl)nc2)nc2c1CN(C(=O)c1ncn3ccccc13)CC2
target = Serine/threonine-protein kinase DCLK3 (DCLK3, Homo sapiens, UniProt Q9C098); value = 100%
target = Serine/threonine-protein kinase LATS2 (LATS2, Homo sapiens, UniProt Q9NRM7); value = 68%
target = Cyclin-dependent kinase 3 (CDK3, Homo sapiens, UniProt Q00526); value = 100%
target = Cyclin-dependent kinase 14 (CDK14, Homo sapiens, UniProt O94921); value = 100%
target = Cyclin-dependent kinase 7 (CDK7, Homo sapiens, UniProt P50613); value = 77%
target = Receptor-type tyrosine-protein kinase FLT3 (FLT3, Homo sapiens, UniProt P36888, K663Q); value = 100%
target = Serine/threonine-protein kinase 32B (STK32B, Homo sapiens, UniProt Q9NY57); value = 100%
target = Serine/threonine-protein kinase WNK4 (WNK4, Homo sapiens, UniProt Q96J92); value = 100%
target = Tyrosine-protein kinase receptor Tie-1 (TIE1, Homo sapiens, UniProt P35590); value = 100%
target = Mitogen-activated protein kinase kinase kinase 7 (MAP3K7, Homo sapiens, UniProt O43318); value = 93%
target = STE20-like serine/threonine-protein kinase (SLK, Homo sapiens, UniProt Q9H2G2); value = 100%
target = Serine/threonine-protein kinase NLK (NLK, Homo sapiens, UniProt Q9UBE8); value = 100%
target = Insulin-like growth factor 1 receptor (IGF1R, Homo sapiens, UniProt P08069); value = 82%
target = Phosphatidylinositol 3-kinase C2 domain-containing subunit gamma (PIK3C2G, Homo sapiens, UniProt O75747); value = 100%
target = Serine/threonine-protein kinase MAK (MAK, Homo sapiens, UniProt P20794); value = 100%
target = Ephrin type-A receptor 6 (EPHA6, Homo sapiens, UniProt Q9UF33); value = 100%
target = Homeodomain-interacting protein kinase 2 (HIPK2, Homo sapiens, UniProt Q9H2X6); value = 100%
target = Fibroblast growth factor receptor 2 (FGFR2, Homo sapiens, UniProt P21802); value = 100%
target = Ribosomal protein S6 kinase alpha-4, C-terminal kinase domain (RPS6KA4, Homo sapiens, UniProt O75676); value = 100%
target = Macrophage-stimulating protein receptor (MST1R, Homo sapiens, UniProt Q04912); value = 100%
target = Serine/threonine-protein kinase DCLK2 (DCLK2, Homo sapiens, UniProt Q8N568); value = 100%

Sample 4 — technique: protein-binding microarray; molecule type: double-stranded DNA, one strand shown; medium: in vitro; concentration: not given; direction: higher = stronger binding; quantity: E-score
Target: Protein C-ets-1 (ETS1, Homo sapiens, UniProt P14921, residues 1-441, full length assumed)
Setting: k-mer, scored over probes, only values ≥0.25
Target sequence (chain): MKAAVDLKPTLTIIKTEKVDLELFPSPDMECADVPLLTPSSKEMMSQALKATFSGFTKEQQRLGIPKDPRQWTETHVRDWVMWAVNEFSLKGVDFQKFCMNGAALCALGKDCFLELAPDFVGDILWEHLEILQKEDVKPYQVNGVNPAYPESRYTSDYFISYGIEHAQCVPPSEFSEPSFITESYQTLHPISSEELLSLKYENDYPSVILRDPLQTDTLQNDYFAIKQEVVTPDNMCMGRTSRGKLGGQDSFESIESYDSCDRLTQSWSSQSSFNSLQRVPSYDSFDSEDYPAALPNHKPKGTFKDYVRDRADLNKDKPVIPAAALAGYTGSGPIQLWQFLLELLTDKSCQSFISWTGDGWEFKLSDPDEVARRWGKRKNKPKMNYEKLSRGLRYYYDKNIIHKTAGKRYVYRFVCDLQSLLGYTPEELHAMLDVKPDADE
Sequence = ACGGATAA; value = 0.323
Sequence = CCGGCCGG; value = 0.394
Sequence = CGGCGGAA; value = 0.439
Sequence = AGCTTCCC; value = 0.28
Sequence = AGTTCCGC; value = 0.406
Sequence = ACCACTTC; value = 0.282
Sequence = ATCCGGAC; value = 0.434
Sequence = CCGGATAA; value = 0.433

For quick reference, copied from above (sample 3):
target = Cyclin-dependent kinase 14 (CDK14, Homo sapiens, UniProt O94921); value = 100%
target = Cyclin-dependent kinase 7 (CDK7, Homo sapiens, UniProt P50613); value = 77%
target = Receptor-type tyrosine-protein kinase FLT3 (FLT3, Homo sapiens, UniProt P36888, K663Q); value = 100%
target = Serine/threonine-protein kinase 32B (STK32B, Homo sapiens, UniProt Q9NY57); value = 100%
target = Serine/threonine-protein kinase WNK4 (WNK4, Homo sapiens, UniProt Q96J92); value = 100%
